# Assay results collected from several papers.
# Parts stem from different laboratories: compare values within a part only. Substitutions count along the parent as printed.

# Block 1 — technique: RNAcompete; form: RNA; medium: in vitro; tested at: 20 nM; notes: 7-mer, probes averaged, single round; relative to: mean of 7-mers; reading: higher = stronger binding
# Target: PABPC1L2, full length, GST fusion (mouse, UniProt A0ABA7IW68)
# Target sequence (chain): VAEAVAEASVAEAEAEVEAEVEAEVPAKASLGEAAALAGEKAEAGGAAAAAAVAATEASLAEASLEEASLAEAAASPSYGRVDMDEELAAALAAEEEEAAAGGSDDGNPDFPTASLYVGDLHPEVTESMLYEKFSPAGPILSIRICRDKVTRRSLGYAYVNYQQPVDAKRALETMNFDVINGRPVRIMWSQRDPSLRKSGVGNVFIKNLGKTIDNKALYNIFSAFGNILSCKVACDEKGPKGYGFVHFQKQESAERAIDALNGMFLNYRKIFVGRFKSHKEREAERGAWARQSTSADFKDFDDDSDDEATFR
Oligonucleotide,7-mer Z-score
CCUUACA,-0.264
GGCCGUC,-0.171
UAAUGUC,-0.24
AGAUGGC,-0.24
UGAUUUA,0.202
AACAUAG,0.436
CCUUCUU,-0.396
CAAAGCA,0.0678
AUGGAUA,0.229
ACCCAUA,-0.124
UGGUGAA,0.0968
UACAAAA,4.71
UUCGGCA,-0.159
UUUCACG,-0.427
CGCCACA,-0.124
GGCAGAA,0.572
GUGUUUU,-0.423
GCACAUG,-0.206
GACCCGA,-0.128
GCGGCUG,-0.0808

# Block 2 — target: CRIPT, C-terminal peptide; technique: DHFR complementation, deep sequencing; medium: yeast; relative to: wild type; reading: higher = weaker binding
# Notes: single substitutions, model-inferred values
# Parent: ERBIN, PDZ domain 1 (human); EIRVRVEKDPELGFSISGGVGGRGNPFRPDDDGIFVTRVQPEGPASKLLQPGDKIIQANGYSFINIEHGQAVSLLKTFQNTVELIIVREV; partner TKNYKQTSV
Change,binding free energy change [kcal/mol]
K8I,1.28
L48Y,0.0488
A58V,0.21
D9A,-0.149
I66D,1.8
S73W,0.119
G19H,1.32
E11H,-0.293
I2V,-0.056
V82H,1.35
E89F,0.0401
T37V,0.0546
D9V,0.519
D32S,0.109
F14P,0.713
I85H,-0.0436
E11F,-0.491
N80F,0.149
I86S,0.482
P41L,0.329
T81A,0.0109
R5K,0.0971
G21Q,0.225
G69K,0.284
V72C,0.842

# Block 3 — technique: RNA Bind-n-Seq; form: RNA; medium: in vitro; tested at: 200 nM; notes: whole 134-nt RNA, ends assumed; with: 150 mM LiCl; relative to: input library; reading: higher = stronger binding; each molecule: 7-deaza-guanosine replaces G
# Target: Fragile X messenger ribonucleoprotein 1, C-terminal low-complexity region (Fmr1, Mus musculus, UniProt P35922)
# All sequences stand within: GGGAGUUCUACAGUCCGACGAUC … UGGAAUUCUCGGGUGUCAAGG
Oligonucleotide,log2 enrichment
GCAGGAAGUAAAAAUAAAUGGAAAUGCUUCGGAUAGUGGCAGGGGUGGGGGUUGCUAAGGAAAGGGUGGGAUGGGAGUGGGUAAAGAGUU,1.68
UCCUGUGCUACACAUCGUAUGUACCGAAUCGGGCCCCCCGGGGCCCCCCGGGCCCCCCGGAAAGUAUUAUGUUACGCCGUUCGGAUCUGC,-2.15
ACCAUGCAAAUGGGCAUCUUUGGGAAGUGGGGCAAGGGGGGGAUAGGGAGGGGGGUAACACUUUGGGAACAGGUGGUCCCAGGUCGUUUC,1.18
CAAGUCCUGUGCUACACAUCGUAUGUACCGAAUCGGGAAAAGGGAAAAGGAAAAGGAAAGUAUUAUGUUACGCCGUUCGGAUCUGCACUU,-1.43
UUCCUCAAGUCCUGUGCUACACAUCGUAUGUACCGAAUCGGCGGGCGGCGGAAAGUAUUAUGUUACGCCGUUCGGAUCUGCACUUCCAGC,1.03
UGCAGCUCUCCGGCUGGGAUCCUGGUUGACGCCAUGUCCCAGAAGCACCUUCAGAUCAACCAGACAUUUGAGGAGCUGCGACUGGUCACG,-2.49
GUCCUGUGCUACACAUCGUAUGUACCGAAUCGGGUUUUUGGGGUUUUUGGGUUUUUGGAAAGUAUUAUGUUACGCCGUUCGGAUCUGCAC,-0.963
AGUCCUGUGCUACACAUCGUAUGUACCGAAUCAAAUUUUUAAACCCCCAAAUUUAAAAAAGUAUUAUGUUACGCCGUUCGGAUCUGCACU,-1.37
CACAGACAACACGCACCCACACAGACACAGAGGGAGGGGGUUGGGAUGGGGACAGGGUGCACAGCAGGGCGGGGUAGGACCCCAGCCCCU,-0.429
CUCAAGUCCUGUGCUACACAUCGUAUGUACCGAAUCGGAGGUGGUUUUUUUGGAAAGUAUUAUGUUACGCCGUUCGGAUCUGCACUUCCA,-0.992
CAAGUCCUGUGCUACACAUCGUAUGUACCGAAUCGGAAAAAGGUGGAAAAAAAGGAAAGUAUUAUGUUACGCCGUUCGGAUCUGCACUUC,-0.952

# Block 4 — target: CCNA1, cyclin fold, Cln2 fusion (human); technique: yeast growth competition, sequencing; medium: yeast; notes: weak parent motif; relative to: not given; reading: higher = stronger binding
# Parent: E2F1 docking peptide (human); PPVKRRLDLETDH; partner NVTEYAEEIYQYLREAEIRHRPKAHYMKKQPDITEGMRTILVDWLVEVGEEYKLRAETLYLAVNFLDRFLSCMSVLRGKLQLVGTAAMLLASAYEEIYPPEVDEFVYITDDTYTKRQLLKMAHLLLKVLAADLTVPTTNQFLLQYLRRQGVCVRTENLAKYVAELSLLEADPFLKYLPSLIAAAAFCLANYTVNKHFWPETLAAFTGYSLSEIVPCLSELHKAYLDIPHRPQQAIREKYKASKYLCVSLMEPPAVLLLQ
Change,normalised enrichment score
D12W,0.267
R5F,0.279
H13S,0.594
P1W,0.698
E10K,0.117
E10M,0.441
R6Q,0.496
R6G,0.248
P1K,0.624
K4A,0.39
E10V,0.339
T11G,0.215
T11P,0.771
D12P,0.99
T11A,0.572
L7K,0.124
R5A L7A,0.0207
D12S,0.33
E10Y,0.331
T11W,0.658

# Block 5 — technique: RNA Bind-n-Seq; form: RNA; medium: in vitro; tested at: 365 nM; relative to: no-protein control; reading: higher = stronger binding
# Target: RNA binding protein fox-1 homolog 2, RRM domain, GST-SBP tag (RBFOX2, Homo sapiens, UniProt O43251-10, residues 100-194)
# Notes: natural RNA segment, single round, ends assumed
# All sequences stand within: GGGAGUUCUACAGUCCGACGAUC … UGGAAUUCUCGGGUGCCAA
# Residues (chain): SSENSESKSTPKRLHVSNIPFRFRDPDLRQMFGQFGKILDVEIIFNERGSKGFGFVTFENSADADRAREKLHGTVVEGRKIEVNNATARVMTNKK
Oligonucleotide,RBNS enrichment (R)
UGUUUGCUAAACCUUGAAGAAACAUGUGCCUCAGCCUAGAUGUUUUGUCUUCUCUUUUCUGCACUUAAUACCUGACAGUAUGACCGAUCUCUGCGCCUUUCUGGGGGCGG,0.298
AUGUCCCCCAUAUGCAUGUAAUGAAACAUUUGUGAAAAUCACUUUAAUAAUAAACAGGAAAUGAACCAAAUAUUGCUCUUUUCUCUUAUUCAGCAGAAGUCAUGAGUUGG,7.76
UAUAGCGGGUACCAGAGGAAAGCUGGCAGCAGUAACUCUCUCCCCAUGCAUCCUAGCCAGUGAGUGCUACAUCCUUUGCAAGUGGAGUUACUGGCCUACCCUUACCCCAU,0.934
GACGAUGUUACAGACUCUGUUUUCUGCCUGGCGUUUCACUUGUGUCUGCUCCUAGCCUGUGCUCUGCCAGCAGCACAGACAUCUGCUCCAUCAGACCUCUUCCAUUUUGC,0.386
UGGCAAAAAGCAAUGCCAGUAAUUAAUAACAUUUGGAAAAGCUUUAUAGAGACUCUAAGUCUAAAUUUUAAUUUCUUUGUAAAAACCUCAAAAGUGAGGAAAAUGGAUGU,0.456
AGCUUAAUGUGCCCUCUCCCCCCAACAACCUGCAGGUUCACAGCACCAGCCACACAGCGGUAGGGAUGAAAUAGUGACAUAAUAUAUUCUAUUUUUGUAACCUUCCUAUU,0.594
GUCUUGAUGGCAAAAUAAUUAUGGUAAAAAACAAGUCUCGUGUUUAUUAUUCCUUAAGAACUCUGUGUUAUAUUACCAUGGAACGCCUAAUAAAGCAAAAUGUGGUUGUU,0.746
UACUUGCGAAGUUUCUAUGCAUACCUUUAAGUUCAGGCCCUAGGUGAAGGACAGUCCCUCAGCCUUUCCAUUGGUUCCUUUGUGUUCAGUGCACCCAGCCUUUGAACAGA,0.679
GCCUGUGCACACUUCACACACUGGGGCGGGACAUAGGCCGCAGGGACCCAGGGUCGCCUCAGGCAAAUGUGGUUGGUCGGUGGCUCCAAAGGCGAGAGGUUUUUCUUCCU,0.274
ACAGAGUGACAAGAAACUGGCUAGUUUGCUAUAAAUCCUACAUUCUGUUUGAUACCUUGAGAGCAGAUACCUGGUCAGCGAGCUUUUAGGGGGGGGCGUUCAAAGGAAGC,0.514
UCGUAAUGUUGGAGAUCAGGAAUAUUGGUUGUGAUGACAAGAAAGAGCCCACUUACUCCUCCUCGUUCUAGGACACGGUCAUCUUUCCUUAGGAAAUUAAAAUGCUUCAU,0.726
CUAGGGCUGUAUUUACUGUCACACACAGGCACCGGUAAGUGACUUUACCGGUGAAAGUCACAGGUACCUUUAUCUAUGAUGAAUGUAAUGUGUUAGAUGGUGACCGAAGU,0.231
